Experimental data of several laboratories.
A part holds a random share of what one study measured.

Set 1 — technique: universal PBM; form: double-stranded DNA, one strand shown; medium: in vitro; tested at: not given; direction: higher = stronger binding; quantity: E-score
Target: Sal-like protein 4, full length isoform B (SALL4, Homo sapiens, UniProt Q9UJQ4-2, residues 1-616)
Notes: 8-mer, flanks averaged, mean of replicates
CTGGAGTC: -0.263
GATCTCCC: -0.235
GCCGAAAC: -0.21
CTAGCAAA: 0.148
ACGTCGGC: -0.182
AGAACTAT: 0.24
GACCCCTA: -0.151
CCAGCAAA: 0.0399
CTTGAACA: 0.00126
CAGCGTCG: -0.213
CGGGACCC: -0.368
ACAAGCAT: -0.00769
AAATTCGA: 0.221
CTCTAGCA: 4e-05
CGGGAAAC: -0.0685
GTATCACA: 0.083
GTACCTGA: 0.0453
GCAAGATA: 0.189
AGTAGCCA: -0.0819
ATATGGCG: 0.19
CTTGCAGC: -0.145
AGGACTGC: -0.358
AATTGAAA: 0.231
AGAGCATA: 0.188
ATACGTGA: 0.262

Set 2 — technique: protein-binding microarray; form: double-stranded DNA, one strand shown; medium: in vitro; tested at: 2200 nM top; notes: 60-bp whole probe; together with: salmon DNA 0.4 mg/ml; baseline: random background probes; direction: higher = stronger binding; quantity: fitted relative affinity; all sequences stand within: GCCTAGCAC … GTCTTGATTCGCTTGACGCTGCTG
Target: Interferon regulatory factor 7, full length, phosphomimetic (IRF7, Homo sapiens, UniProt Q92985, residues 1-503, S471D/S472D/S475D/S476D/S477D/S483D/S484D/S487D)
Construct (chain): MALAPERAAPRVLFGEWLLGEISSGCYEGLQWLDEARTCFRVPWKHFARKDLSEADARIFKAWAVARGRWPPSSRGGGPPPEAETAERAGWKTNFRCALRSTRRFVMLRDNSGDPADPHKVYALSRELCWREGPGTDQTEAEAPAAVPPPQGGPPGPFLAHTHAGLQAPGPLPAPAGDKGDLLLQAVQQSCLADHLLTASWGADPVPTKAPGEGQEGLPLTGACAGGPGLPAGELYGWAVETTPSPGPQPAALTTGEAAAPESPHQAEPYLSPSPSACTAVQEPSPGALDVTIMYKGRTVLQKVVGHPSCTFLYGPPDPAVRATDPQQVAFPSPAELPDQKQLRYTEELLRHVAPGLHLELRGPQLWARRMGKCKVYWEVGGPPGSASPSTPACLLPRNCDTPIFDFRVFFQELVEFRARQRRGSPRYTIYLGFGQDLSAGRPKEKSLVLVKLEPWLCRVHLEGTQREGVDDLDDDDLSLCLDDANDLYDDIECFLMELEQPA
CAAGTTTGCCTCCTTCAGTCAGTGCTA: 1.34 z-score
GACGGTTTCCTTTCCCTGCCGTGCTAG: 4.42 z-score
CCGCCGCCTGGCTGGGGGATGTGCTAG: -0.542 z-score
TTAGGACTGGGGTTTCAGTTAGTGCTA: -0.0364 z-score
TTAGGACTAGACACTGGGTTAGTGCTA: -0.652 z-score
TTAGATCTCCTTATCCTTTAGTGCTAG: 1.11 z-score
ATTCCTTTGCCTCCAGGCGCGTGCTAG: 1.45 z-score
TTAGGACTGGGACTGGCTTAGTGCTAG: -1.01 z-score
GACGAACTGAATCTCGAGACGTGCTAG: 0.00776 z-score
ATAGATCTCAGTATCGATTAGTGCTAG: 0.399 z-score
TTCATTTTCTGAATGTCCTCGTGCTAG: 4.34 z-score
GACGAACTGAGTAACGAGACGTGCTAG: -0.198 z-score
TCATTTCTCAGTTTATTACTGTGCTAG: 2.42 z-score
TCAACCCTCCCTCTGTAAGTGTGCTAG: 1.38 z-score
GACGGTTTCCTTTCCCTGAGGTGCTAG: 3.85 z-score
TTAGATTTCGGGGATCGATTAGTGCTA: 0.941 z-score
GACGATATCGGTACTGGAGACGTGCTA: 0.0025 z-score
AATGACTCTATGAAGTAGTTGTGCTAG: -0.156 z-score
TTAGGTCTCTGTTTCGGTTAGTGCTAG: 4.75 z-score
TATGTTCCCTATATAAGGCGGTGCTAG: 1.14 z-score
TTAGATTTCAGACTAGATTAGTGCTAG: -0.441 z-score
GACGATTTCGGGTTTCGCGACGTGCTA: 4.72 z-score
ACAAGTTTCTCCTTTCCAAAGTGCTAG: 3.58 z-score
TCAAGCTTGGGTCTGTGACTGTGCTAG: -0.332 z-score

Set 3 — technique: protein-binding microarray; form: hairpin DNA; medium: in vitro; tested at: not given; baseline: not given; direction: higher = stronger binding; quantity: median fluorescence
Target: Runt-related transcription factor 1, full length (RUNX1, Homo sapiens, UniProt Q01196-8, residues 1-480)
Notes: whole hairpin DNA, median over replicate spots
GAGGCCCAACCGCAACGGCCTCCTGGCCGTTGCGGTTGGGCCTCACACTC (5mC at 16): 6710 a.u.
GAGGCCAGTCGCGGTTGGCCTCCTGGCCAACCGCGACTGGCCTCACACTC: 2550 a.u.
GAGGCCCAAGCGCAACAGCCTCCTGGCTGTTGCGCTTGGGCCTCACACTC (5mC at 35): 1690 a.u.
GAGGCCTGTTGTGCGTGGCCTCCTGGCCACGCACAACAGGCCTCACACTC (5mC at 30): 1830 a.u.
GAGGGCTGTCGCGGTTGGCCTCCTGGCCAACCGCGACAGCCCTCACACTC (5mC at 40): 2780 a.u.
GAGGCCCAACCGCCACAGCCTCCTGGCTGTGGCGGTTGGGCCTCACACTC (5mC at 14): 2830 a.u.
GAGGCCTGTTGTGCTTGGCCTCCTGGCCAAGCACAACAGGCCTCACACTC: 1700 a.u.
GAGGCCGGTCGCGGTTGGCCTCCTGGCCAACCGCGACCGGCCTCACACTC: 2990 a.u.
GAGGCCTGTCGCGGCGGGCCTCCTGGCCCGCCGCGACAGGCCTCACACTC: 2130 a.u.
GAGGCCTGTCGTGGTTGGCCTCCTGGCCAACCACGACAGGCCTCACACTC (5mC at 10 34): 3180 a.u.
GAGGCCCAACTGCAACAGCCTCCTGGCTGTTGCAGTTGGGCCTCACACTC: 1670 a.u.
GAGGCCCGTCGCGGTTGGCCTCCTGGCCAACCGCGACGGGCCTCACACTC (5mC at 37): 2720 a.u.
GAGGCCTGCTGCGGTTGGCCTCCTGGCCAACCGCAGCAGGCCTCACACTC (5mC at 9): 5220 a.u.
GAGGCCTGTTGTTGTTGGCCTCCTGGCCAACAACAACAGGCCTCACACTC: 1690 a.u.
GAGGCCTGTCTCGGTTGGCCTCCTGGCCAACCGAGACAGGCCTCACACTC: 1740 a.u.
GAGGCCTGTCGCGGCGGGCCTCCTGGCCCGCCGCGACAGGCCTCACACTC (5mC at 29): 2000 a.u.
GAGGCCCAACCGCAACGGCCTCCTGGCCGTTGCGGTTGGGCCTCACACTC (5mC at 16 28): 6780 a.u.
GAGGCCCAGCCGCAACAGCCTCCTGGCTGTTGCGGCTGGGCCTCACACTC (5mC at 36): 2510 a.u.

Set 4 — technique: protein binding microarray; form: double-stranded DNA, one strand shown; medium: in vitro; tested at: not given; baseline: not given; direction: higher = stronger binding; quantity: E-score
Target: Histone acetyltransferase KAT6A, winged helix 1, GST fusion (KAT6A, Homo sapiens, UniProt Q92794, residues 1-85)
Notes: 8-mer, flanks averaged, mean of 2 arrays, mostly near background
Residues (chain): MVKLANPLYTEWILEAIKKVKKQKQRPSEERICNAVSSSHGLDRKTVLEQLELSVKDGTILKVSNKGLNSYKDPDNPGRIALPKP
AGACTAGC: -0.0561
ATACTTCG: 0.0494
AAAGATCA: -0.0861
ATAACGAA: -0.217
CGATTGCC: 0.191
ATCCTCAG: -0.152
CAATACAG: 0.0598
ACATTAGA: -0.133
CGGGGGCA: 0.194
ATCGTTCC: 0.0119
CTCGTAGC: -0.0327
CGCAAAAC: 0.252
CTGGTTAC: -0.071
CGTAACAC: 0.153
AAGACAAG: -0.025
ACACGCGC: 0.389
AGGCTCAG: -0.189
ACGTTCGA: -0.102
AACACGAC: -0.117
CCCGGACC: 0.0192

Set 5 — technique: RNA Bind-n-Seq; form: RNA; medium: in vitro; tested at: 365 nM; baseline: no-protein control; direction: higher = stronger binding; quantity: RBNS enrichment (R)
Target: RNA binding protein fox-1 homolog 2, RRM domain, GST-SBP tag (RBFOX2, Homo sapiens, UniProt O43251-10, residues 100-194)
Notes: natural RNA segment, single round, ends assumed
Construct (chain): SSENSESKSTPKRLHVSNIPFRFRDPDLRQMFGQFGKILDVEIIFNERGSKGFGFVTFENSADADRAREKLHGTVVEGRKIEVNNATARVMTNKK
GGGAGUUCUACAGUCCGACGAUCUAAUUGCAAAGUAGUUCAAAGCAAAGAAAAGCUUACAUUAAUCCCUAGAUUUUAGAACUGUAUGUAGAAUUUUCACAGAAUACAUUGUUAAGCUAACACUUUUAACAACGUGGAAUUCUCGGGUGCCAA: 0.523
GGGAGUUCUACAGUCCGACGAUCAAAUUUGGUACUUAAGGCACAGCCAGUGUGAGGCACUGAACGCGACAUUUAUUACAAUGAGCUGCUGCACUCCUACUUUUAUAAAUUUUACUAACAAGUAGACUAAUGUAUGGAAUUCUCGGGUGCCAA: 0.539
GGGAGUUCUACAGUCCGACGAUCGGUAAAAUACUGCAAAGAACUAACAACAACAGGUUAGUGUUGGCUCCUGAACAGUAAACCGCUCUGACUGAGCUUCAGUCACCCUCUUCUGUACGAGCCUCAUGCAAUUAUGGAAUUCUCGGGUGCCAA: 0.243
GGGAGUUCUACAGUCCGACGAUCCUGCCUCUGUUCUUUCAACUCCUUUGAGGCUCAAAAAAAACACAAAGAUCAGAAGCCUUCAGAUAGAGGGUGGUAUUCUGGUAAAGAAGAAAGAGAUAAGGGACGCUACCUGGAAUUCUCGGGUGCCAA: 0.348
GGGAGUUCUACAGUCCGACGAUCAGCCCUUUGAUGGGGUCUUAACUCAUAUCAGUCAUUUGGGCUUCUCUGAUCCUGAGGCUAAGAAAGGGGAAGAGACCCUCAGGAGGCAGCUUCCACUCCAGGGCUCUUGAUGGAAUUCUCGGGUGCCAA: 0.589
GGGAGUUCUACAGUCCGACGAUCCUAUGCUUACUCCUUGAAGCUCCUCCUAAAGGCCUCUCCUCCAUGCUAUACCCCUCUCCAUUACAGAAACUGGUCCUGUGAGCUAAAAAGUGGGUGUGACUCGUGACUGGUGGAAUUCUCGGGUGCCAA: 0.646
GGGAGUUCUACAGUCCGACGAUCCUUUACAGUGGACUCGGCCACUGUGCAUAGGCUUCUCUGCUCUCCAUCAAAUCACUUCCACUUUCCUGUGCCCCCACCCCCGCCUCCAGUUUUCCGCUAGUAUCCGGCAAUGGAAUUCUCGGGUGCCAA: 0.905
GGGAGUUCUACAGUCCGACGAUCUGUUUAGAAGCAGCAGGCAAUGUAGUUAACAGCAUAGACUUCCGUGUCUUGUGUGUGGUACCUUGGGCAAGUUACUAACUCCCUCUGUAAAGUAGAGACGAUGGGGACUGUGGAAUUCUCGGGUGCCAA: 0.758
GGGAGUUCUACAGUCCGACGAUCGAUCUCUAAACCUUCUUACAUAGAAAGCAUCCCUAUAAUCUAUAGGGAGAGGCGGGGAAUAAAGUGCCUAUUCUGCCAGUGUCUGGGACUUCUUUAUGGACAGAAGGGGAUGGAAUUCUCGGGUGCCAA: 0.559
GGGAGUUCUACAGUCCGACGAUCCUCACCCCAGACCACUUAAAUCCUAUCUUUGGUAAAACGCAGGUAUCAGAGAAGCAUAUUUCCCUUGUGUCUCUUAAUACUGUCAUCUUGAAACUCUCUCUAGGAAAAAUUGGAAUUCUCGGGUGCCAA: 0.407
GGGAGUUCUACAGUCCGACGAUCCAAAGGCGAGAGGUUUUUCUUCCUGGCCCCCCAGUGUGGGUUUCUUCCUGUGAACUCACUCUGUGCCCCUGUUGUCCACAGGAUUCCAGUCUCCUGUUCUCAGUCAGGCUUGGAAUUCUCGGGUGCCAA: 0.238
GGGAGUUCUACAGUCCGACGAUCUGGUGUUUCAUAAGCAUGCCUGCUGACAGCUGUAUGUGGUACUGCAGUGUUUACCAUAAACAGGUACAGGCUUCAUGAGUUUUUCAUACUGAUUUACAAUUGAGUAGAUAUGGAAUUCUCGGGUGCCAA: 5.08

Excerpt of the above (set 2):
GACGAACTGAATCTCGAGACGTGCTAG: 0.00776 z-score
ATAGATCTCAGTATCGATTAGTGCTAG: 0.399 z-score
TTCATTTTCTGAATGTCCTCGTGCTAG: 4.34 z-score
GACGAACTGAGTAACGAGACGTGCTAG: -0.198 z-score
TCATTTCTCAGTTTATTACTGTGCTAG: 2.42 z-score
TCAACCCTCCCTCTGTAAGTGTGCTAG: 1.38 z-score
GACGGTTTCCTTTCCCTGAGGTGCTAG: 3.85 z-score
TTAGATTTCGGGGATCGATTAGTGCTA: 0.941 z-score
GACGATATCGGTACTGGAGACGTGCTA: 0.0025 z-score
AATGACTCTATGAAGTAGTTGTGCTAG: -0.156 z-score
TTAGGTCTCTGTTTCGGTTAGTGCTAG: 4.75 z-score
TATGTTCCCTATATAAGGCGGTGCTAG: 1.14 z-score
TTAGATTTCAGACTAGATTAGTGCTAG: -0.441 z-score
GACGATTTCGGGTTTCGCGACGTGCTA: 4.72 z-score
ACAAGTTTCTCCTTTCCAAAGTGCTAG: 3.58 z-score
TCAAGCTTGGGTCTGTGACTGTGCTAG: -0.332 z-score
